Published values pooled from the literature.
Each line is one published result; not all experiments were run side by side. Several values in a cell are separate wells, animals, samples, runs or records. ± marks the error that the study gave.

Compound	assay	test system	conditions	scale	endpoint	result
CCCCCCCOC(=O)Cc1c(C)n(C(=O)c2ccc(Cl)cc2)c2ccc(OC)cc12	hot plate test	BALB/c mice	75 mg/kg, 0 min		latency of nociceptive response	10.5 ± 0.68 s
C=CC(=O)N1C[C@H](C)N(c2nc(OC[C@@]34CCCN3C[C@H](F)C4)nc3c(F)c(-c4ccc(F)c5sc(N)c(C#N)c45)c(C(F)(F)F)cc23)C[C@H]1C		MIA PaCa-2 Matrigel plug, mouse	oral, 3 mg/kg single dose, 6 h		pERK inhibition	46%
CCCC[C@H](NC(=O)[C@@H](NC(=O)[C@H](CC(=O)O)NC(=O)[C@H](CCC(N)=O)NC(=O)[C@H](CC(C)C)NC(=O)[C@H](CC(C)C)NC(=O)[C@H](CCCN)NC(=O)[C@H](CCCNC(=N)N)NC(=O)[C@H](C)NC(=O)[C@H](CO)NC(=O)[C@H](CC(C)C)NC(=O)[C@H](CCC(N)=O)NC(=O)[C@H](CC)NC(=O)[C@H](CC(C)C)NC(=O)[C@@H](NC(=O)[C@H](CCCN)NC(=O)[C@H](CCCNC(=N)N)NC(=O)[C@H](Cc1ccc(O)cc1)NC(=O)[C@H](CO)NC(=O)[C@H](CCC(N)=O)NC(=O)[C@@H](NC(=O)[C@H](Cc1ccccc1)NC(=O)[C@@H](NC(=O)[C@H](C)NC(=O)[C@H](CC(=O)O)NC(=O)[C@@H](C)NC(=O)[C@H](Cc1ccc(O)cc1)NC)[C@@H](C)CC)[C@@H](C)O)C(C)C)[C@@H](C)CC)C(=O)N[C@@H](CC(=O)O)C(=O)N[C@@H](CCCNC(=N)N)C(=O)NCCCCC(N)=O	GH release, ELISA	male Sprague-Dawley rat, anaesthetised, serum	subcutaneous, 3 µg/kg, 0 min		serum GH level	43.7 ± 6.4 ng/mL
CCCCCCOC(=O)Cc1c(C)n(C(=O)c2ccc(Cl)cc2)c2ccc(OC)cc12		BALB/c mice, acetic acid writhing	intraperitoneal, 30 mg/kg, 20 min count		writhing count	10 ± 1
Cc1ncc2c(n1)CN(C(=O)Nc1nc(-c3cccs3)ccc1N)C2		wild type mouse, hippocampal CA1	oral, 0.1 or 0.3 mg/kg daily, 14 days	reference: vehicle	dendritic spine density	no effect
COc1ccc2c(c1)c(CC(=O)OCOC(C)=O)c(C)n2C(=O)c1ccc(Cl)cc1	hot plate test	BALB/c mice	100 mg/kg, 60 min		latency of nociceptive response	17.6 ± 0.66 s
CN1CCC[C@]1(C)/C=C/S(=O)(=O)NC(=O)Nc1c2c(cc3c1CCC3)CCC2	IL-1β release, ex vivo whole blood	human, whole blood	oral, 100 mg single dose, 24 h, together with: LPS and ATP		inhibition	> 90%
C=C(c1cc(F)c(C(=O)O)c(F)c1)c1cc2c(cc1C)C(C)(C)CCC2(C)C	RNA sequencing, item: Nmb	rat, brain	dose not given, 24 h	reference: vehicle	log2 fold change	1.28
NS(=O)(=O)NCC(F)(F)c1ccccc1F	MES seizures	rat	oral		ED50	44 mg/kg
CCCC[C@H](NC(=O)[C@@H](NC(=O)[C@H](CC(=O)O)NC(=O)[C@H](CCC(N)=O)NC(=O)[C@H](CC(C)C)NC(=O)[C@H](CC(C)C)NC(=O)[C@H](CCCN)NC(=O)[C@H](CCCNC(=N)N)NC(=O)[C@H](C)NC(=O)[C@H](CO)NC(=O)[C@H](CC(C)C)NC(=O)[C@H](CCC(N)=O)NC(=O)[C@H](CC)NC(=O)[C@H](CC(C)C)NC(=O)[C@@H](NC(=O)[C@H](CCCN)NC(=O)[C@H](CCCNC(=N)N)NC(=O)[C@H](Cc1ccc(O)cc1)NC(=O)[C@H](CO)NC(=O)[C@H](CC(N)=O)NC(=O)[C@@H](NC(=O)[C@H](Cc1c(F)c(F)c(F)c(F)c1F)NC(=O)[C@@H](NC(=O)[C@H](C)NC(=O)[C@H](CC(=O)O)NC(=O)[C@@H](C)NC(=O)CCc1ccc(O)cc1)[C@@H](C)CC)[C@@H](C)O)C(C)C)[C@@H](C)CC)C(=O)N[C@@H](CO)C(=O)N[C@@H](CCCNC(=N)N)C(=O)NCCCC(N)=O	GH release, ELISA	male Sprague-Dawley rat, anaesthetised, serum	subcutaneous, 3 µg/kg, 15 min		serum GH level	267 ± 21 ng/mL
CC(C)(O)c1ccc(N2Cc3c(ccnc3-c3ccc(F)cc3OCC(F)(F)F)C2=O)cc1		Gaucher disease mouse model, brain	10 mg/kg, single dose	reference: vehicle	glucosylsphingosine level	89 ± 7%
CC(C)C[C@H](NC(=O)[C@H](CCCNC(=N)N)NC(=O)CNC(=O)[C@@H](N)CC(C)C)C(=O)N[C@@H](CO)C(=O)N[C@@H](CCC(N)=O)C(=O)N[C@@H](CCC(=O)O)C(=O)N[C@@H](CC(C)C)C(=O)N[C@@H](Cc1c[nH]cn1)C(=O)N[C@@H](CCCNC(=N)N)C(=O)N[C@@H](CC(C)C)C(=O)N[C@@H](CCC(N)=O)C(=O)N[C@H](C(=O)N[C@@H](Cc1ccc(O)cc1)C(=O)N1CCC[C@H]1C(=O)N[C@@H](CCCNC(=N)N)C(=O)N[C@H](C(=O)N[C@@H](CC(N)=O)C(=O)N[C@H](C(=O)NCC(=O)N[C@@H](CO)C(=O)N[C@@H](CC(N)=O)C(=O)N[C@H](C(=O)N[C@@H](Cc1ccc(O)cc1)C(N)=O)[C@@H](C)O)[C@@H](C)O)[C@@H](C)O)[C@@H](C)O		TgCRND8 mice, brain	icv, dose not given, 5 months	reference: vehicle	synaptophysin level increase	30%
COc1cc(C(=O)OCCCN2CCCN(CCCOC(=O)c3cc(OC)c(OC)c(OCc4ccc([N+](=O)[O-])cc4)c3)CC2)cc(OC)c1OC		mouse, STZ diabetic neuropathy	sc, 3 x 30 mg/kg		neuropathic pain	decreased
CCOc1cncc(-c2ccc(NC(=O)C(CC)c3ccnc(NS(=O)(=O)C4CC4)n3)nc2)n1 (centres unmarked)	enzyme activity, inhibitor, RapidFire mass spectrometry	rat		reference: CTPS1 over CTPS2	selectivity ratio	1
O=c1c(OCc2ccccc2)c(-c2cccc([N+](=O)[O-])c2)oc2ccccc12		diabetic rat	7.5 mg/kg, p-nitrophenyl β-glucoside induced		serum alkaline phosphatase	206 ± 4.72 IU
CC[C@H]1[C@@H](O)[C@@H]2[C@H](CC[C@]3(C)[C@@H]([C@H](C)CCOS(=O)(=O)[O-])CC[C@@H]23)[C@@]2(C)CC[C@@H](O)C[C@@H]12.[Na+]	histology	ob/ob NASH mouse model, liver	oral, 3 mg/kg once daily, 8 weeks, scale 0 to 2	direction not given	ballooning score	0.7 ± 0.1
CCCC[C@H](NC(=O)[C@@H](NC(=O)[C@H](CC(=O)O)NC(=O)[C@H](CCC(N)=O)NC(=O)[C@H](CC(C)C)NC(=O)[C@H](CC(C)C)NC(=O)[C@H](CCCN)NC(=O)[C@H](CCCNC(=N)N)NC(=O)[C@H](C)NC(=O)[C@H](CO)NC(=O)[C@H](CC(C)C)NC(=O)[C@H](CCC(N)=O)NC(=O)[C@H](CC)NC(=O)[C@H](CC(C)C)NC(=O)[C@@H](NC(=O)[C@H](CCCN)NC(=O)[C@H](CCCNC(=N)N)NC(=O)[C@H](Cc1ccc(O)cc1)NC(=O)[C@H](CO)NC(=O)[C@H](CC(N)=O)NC(=O)[C@@H](NC(=O)[C@H](Cc1ccccc1)NC(=O)[C@@H](NC(=O)[C@H](C)NC(=O)[C@H](CC(=O)O)NC(=O)[C@@H](C)NC(=O)[C@H](Cc1ccc(O)cc1)NC)[C@@H](C)CC)[C@@H](C)O)C(C)C)[C@@H](C)CC)C(=O)N[C@@H](CC(=O)O)C(=O)N[C@@H](CCCNC(=N)N)C(=O)NCC	GH release, ELISA	male Sprague-Dawley rat, anaesthetised, serum	subcutaneous, 3 µg/kg, 0 min		serum GH level	44 ± 8.9 ng/mL
C=C(c1ncc(C(=O)O)cn1)c1cc2c(cc1C)C(C)(C)CCC2(C)C	RNA sequencing, item: Lyve1	rat, brain	dose not given, 24 h	reference: vehicle	log2 fold change	-0.049
CCCC[C@H](NC(=O)[C@@H](NC(=O)[C@H](CC(=O)O)NC(=O)[C@H](CCC(N)=O)NC(=O)[C@H](CC(C)C)NC(=O)[C@H](CC(C)C)NC(=O)[C@H](CCCN)NC(=O)[C@H](CCCNC(=N)N)NC(=O)[C@H](C)NC(=O)[C@H](CO)NC(=O)[C@H](CC(C)C)NC(=O)[C@H](CCC(N)=O)NC(=O)[C@H](CC)NC(=O)[C@H](CC(C)C)NC(=O)[C@@H](NC(=O)[C@H](CCCN)NC(=O)[C@H](CCCNC(=N)N)NC(=O)[C@H](Cc1ccc(O)cc1)NC(=O)[C@H](CO)NC(=O)[C@H](CC(N)=O)NC(=O)[C@@H](NC(=O)[C@H](Cc1ccccc1)NC(=O)[C@@H](NC(=O)[C@H](C)NC(=O)[C@H](CC(=O)O)NC(=O)[C@@H](CC)NC(=O)CCc1ccc(O)cc1)[C@@H](C)CC)[C@@H](C)O)C(C)C)[C@@H](C)CC)C(=O)N[C@@H](CO)C(=O)N[C@@H](CCCNC(=N)N)C(=O)NCCCC(N)=O	GH release, ELISA	male rat, anaesthetised, serum	intravenous, 1 µg/kg, 5 min		serum GH level	832 ± 214 ng/mL
Cc1ccc(-c2oc3ccccc3c(=O)c2OCc2ccccc2)cc1		diabetic rat	7.5 mg/kg, 28 days, p-nitrophenyl β-glucoside induced		serum HDL cholesterol	44.1 ± 1.84 mg/dL
Cc1ncc([N+](=O)[O-])n1CCOCc1nnc(SCC(=O)c2ccc([N+](=O)[O-])cc2)o1			50 µg/mL, 45 min		DPPH scavenging	60.2 ± 1.45%
COc1c2c(cc3oc(CO)cc(=O)c13)O[C@H](C(C)(C)O)C2		mouse, xylene ear edema	oral, 1 mg/kg		ear edema weight increase	4.57 ± 0.33 mg
O=c1c(OCc2ccccc2)c(-c2ccc(Cl)cc2)oc2ccccc12		diabetic rat	5 mg/kg, p-nitrophenyl β-glucoside induced		serum alkaline phosphatase	184 ± 4.09 IU
Clc1ccc(C(c2c[nH]c3ccccc23)c2c[nH]c3ccccc23)cc1	Western blot, item: Nurr1	mice, MPTP/probenecid Parkinson model, striatum	dose not given	reference: control	protein level	77.2% and ~80%
[2H]C([2H])([2H])C(c1cc2nnc(-c3cc(F)ccc3F)n2nc1OCc1ncnn1C)(C([2H])([2H])[2H])C([2H])([2H])[2H]	Racine scale	amygdala-kindled Wistar rats	oral, 100 mg/kg, 2 h before stimulation, unit not given	reference: baseline	seizure severity change	-4
COC(=O)N[C@H]1CC[C@@H](Nc2cc(NCc3ccccc3F)n3ncc(C(C)C)c3n2)CC1	Western blot, item: phospho-Rb, phospho-Ser2 and phospho-Ser5 RNA polymerase II	mice with HCT-116 xenograft	30 mg/kg per day, 14 days	reference: vehicle	protein phosphorylation	decreased

For quick reference, copied from above:
Compound	assay	test system	conditions	scale	endpoint	result
COc1c2c(cc3oc(CO)cc(=O)c13)O[C@H](C(C)(C)O)C2		mouse, xylene ear edema	oral, 1 mg/kg		ear edema weight increase	4.57 ± 0.33 mg
O=c1c(OCc2ccccc2)c(-c2ccc(Cl)cc2)oc2ccccc12		diabetic rat	5 mg/kg, p-nitrophenyl β-glucoside induced		serum alkaline phosphatase	184 ± 4.09 IU
Clc1ccc(C(c2c[nH]c3ccccc23)c2c[nH]c3ccccc23)cc1	Western blot, item: Nurr1	mice, MPTP/probenecid Parkinson model, striatum	dose not given	reference: control	protein level	77.2% and ~80%
[2H]C([2H])([2H])C(c1cc2nnc(-c3cc(F)ccc3F)n2nc1OCc1ncnn1C)(C([2H])([2H])[2H])C([2H])([2H])[2H]	Racine scale	amygdala-kindled Wistar rats	oral, 100 mg/kg, 2 h before stimulation, unit not given	reference: baseline	seizure severity change	-4
